{"data": "Published values collected from several papers", "note": "Protocols differ between the studies behind these lines."}
{"Compound": "Cc1nonc1Cn1nnc2c(N3CC[C@H](O)C3)nc(C(C)(C)C)nc21", "technique": "equilibrium dialysis", "matrix": "mouse plasma", "unbound fraction": 0.0088}
{"Compound": "C/C=C1/CN2CC[C@@]34c5cc(O)ccc5N(C)[C@]35OC[C@@]4(C(=O)OC)[C@H]1C[C@H]25", "matrix": "rat plasma", "concentration": "1 µM", "time": "6 h", "unbound fraction": 0.129}
{"Compound": "CC(=O)c1c(C)c2cnc(Nc3ccc(C4CCN(CCS(C)(=O)=O)CC4)cn3)nc2n(C2CCCC2)c1=O", "matrix": "dogs plasma", "unbound fraction": 0.04}
{"Compound": "N=C(CC(O)c1cc2c(F)cc(F)cc2c2cc(C(F)(F)F)ccc12)Nc1ccc(F)c(F)c1 (stereo not drawn)", "technique": "equilibrium dialysis", "matrix": "diluted human plasma", "concentration": "100 ng/mL", "time": "24 h", "notes": "plasma dilution 1:10", "unbound fraction": 0.0022}
{"Compound": "CC(=O)CC(c1ccccc1)c1c(O)c2ccccc2oc1=O (stereo not drawn)", "technique": "plasma protein binding", "matrix": "rat plasma", "unbound fraction": 0.0062}
{"Compound": "Cc1nc([C@@](C)(CC2CC2)NC(=O)c2cc(OCC(F)(F)F)c(C3CC3)cn2)no1", "technique": "equilibrium dialysis", "matrix": "mouse plasma", "unbound fraction": 0.009}
{"Compound": "O=C(O)C(O)(c1cccs1)c1cccs1", "technique": "in vitro", "matrix": "human plasma", "unbound fraction": 0.026}
{"Compound": "CC(C)CC(=O)OC[C@H]1O[C@@](C#N)(c2ccc3c(N)ncnn23)[C@H](O)[C@@H]1O", "technique": "plasma protein binding", "matrix": "mouse plasma", "concentration": "9 µM", "unbound fraction": 0.163}
{"Compound": "CC(C)NCC(O)COc1cccc2ccccc12 (stereo not drawn)", "technique": "plasma protein binding", "matrix": "dog plasma", "unbound fraction": 0.133}
{"Compound": "N=C(CC(O)c1cc2c(F)cc(F)cc2c2cc(C(F)(F)F)ccc12)Nc1ccc(Br)cc1 (stereo not drawn)", "technique": "equilibrium dialysis", "matrix": "diluted human plasma", "concentration": "100 ng/mL", "time": "24 h", "notes": "plasma dilution 1:10", "unbound fraction": 0.0009}
{"Compound": "NC(=O)[C@@H]1CC(F)(F)CN1C(=O)c1ccc(N2CC(F)(F)C2)c(OCC2CC2)n1", "technique": "equilibrium dialysis", "matrix": "human plasma", "unbound fraction": 0.0843}
{"Compound": "Cc1ccc2[nH]c(=S)n(Cc3cccnc3)c(=O)c2c1", "matrix": "human plasma", "concentration": "10 µM", "unbound fraction": 0.035}
